Published values pooled from the literature.
Each line is one published result; not all experiments were run side by side. ± marks the error that the study gave.
YWHAZ: 14-3-3 protein zeta/delta (YWHAZ, Homo sapiens, UniProt P63104)
Chain of UniProt P63104 (whole entry, looked up): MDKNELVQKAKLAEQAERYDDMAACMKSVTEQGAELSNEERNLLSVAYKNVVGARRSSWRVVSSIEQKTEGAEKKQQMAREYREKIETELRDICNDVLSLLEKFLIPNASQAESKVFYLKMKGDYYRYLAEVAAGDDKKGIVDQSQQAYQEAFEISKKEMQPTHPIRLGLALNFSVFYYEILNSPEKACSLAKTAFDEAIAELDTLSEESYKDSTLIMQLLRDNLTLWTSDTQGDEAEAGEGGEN
Chain of UniProt Q9UEF7 (whole entry, looked up): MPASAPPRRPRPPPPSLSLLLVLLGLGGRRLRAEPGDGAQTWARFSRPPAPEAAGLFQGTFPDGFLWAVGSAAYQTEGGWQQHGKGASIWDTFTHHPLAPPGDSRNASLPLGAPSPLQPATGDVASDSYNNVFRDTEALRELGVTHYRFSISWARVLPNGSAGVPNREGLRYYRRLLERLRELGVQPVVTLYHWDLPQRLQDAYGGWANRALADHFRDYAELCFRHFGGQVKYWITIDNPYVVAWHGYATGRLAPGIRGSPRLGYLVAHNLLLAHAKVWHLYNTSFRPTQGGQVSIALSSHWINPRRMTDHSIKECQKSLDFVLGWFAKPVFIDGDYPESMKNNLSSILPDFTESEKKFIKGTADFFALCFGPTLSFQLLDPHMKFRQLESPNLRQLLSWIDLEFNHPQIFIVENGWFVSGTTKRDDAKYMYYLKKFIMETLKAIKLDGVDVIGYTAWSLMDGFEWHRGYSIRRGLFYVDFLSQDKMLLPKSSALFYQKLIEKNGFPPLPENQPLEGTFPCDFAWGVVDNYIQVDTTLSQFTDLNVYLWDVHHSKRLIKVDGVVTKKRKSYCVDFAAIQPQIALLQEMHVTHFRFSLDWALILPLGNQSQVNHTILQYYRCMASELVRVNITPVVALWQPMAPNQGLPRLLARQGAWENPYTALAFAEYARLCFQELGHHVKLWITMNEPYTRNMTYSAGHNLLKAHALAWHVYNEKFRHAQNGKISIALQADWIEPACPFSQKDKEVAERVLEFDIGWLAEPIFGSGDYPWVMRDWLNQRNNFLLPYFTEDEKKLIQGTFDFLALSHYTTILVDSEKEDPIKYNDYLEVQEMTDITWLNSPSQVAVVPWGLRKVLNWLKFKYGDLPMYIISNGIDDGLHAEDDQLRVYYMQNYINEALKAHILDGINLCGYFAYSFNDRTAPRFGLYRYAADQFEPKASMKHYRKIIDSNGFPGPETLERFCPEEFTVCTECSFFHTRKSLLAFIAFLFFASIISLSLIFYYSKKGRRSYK
Chain of UniProt Q39204 (whole entry, looked up): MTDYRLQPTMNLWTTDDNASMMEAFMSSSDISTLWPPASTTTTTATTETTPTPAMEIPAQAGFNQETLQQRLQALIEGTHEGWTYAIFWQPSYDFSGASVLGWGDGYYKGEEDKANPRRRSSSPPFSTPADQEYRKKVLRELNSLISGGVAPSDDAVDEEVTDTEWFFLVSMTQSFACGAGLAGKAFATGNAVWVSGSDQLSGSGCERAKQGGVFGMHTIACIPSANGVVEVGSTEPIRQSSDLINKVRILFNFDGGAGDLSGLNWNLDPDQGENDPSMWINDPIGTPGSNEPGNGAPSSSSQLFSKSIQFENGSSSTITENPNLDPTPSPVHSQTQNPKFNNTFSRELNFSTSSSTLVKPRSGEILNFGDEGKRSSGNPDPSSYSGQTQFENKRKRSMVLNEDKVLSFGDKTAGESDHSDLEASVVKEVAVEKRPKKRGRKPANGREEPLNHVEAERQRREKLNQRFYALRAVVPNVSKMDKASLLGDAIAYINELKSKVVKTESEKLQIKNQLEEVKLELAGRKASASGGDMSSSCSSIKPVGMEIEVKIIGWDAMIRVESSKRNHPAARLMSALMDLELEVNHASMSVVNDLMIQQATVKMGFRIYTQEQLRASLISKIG
Chain of UniProt P63165 (whole entry, looked up): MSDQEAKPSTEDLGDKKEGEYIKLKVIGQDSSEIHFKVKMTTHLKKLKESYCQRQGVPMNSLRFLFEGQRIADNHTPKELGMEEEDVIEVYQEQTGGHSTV
Chain of UniProt P12004 (whole entry, looked up): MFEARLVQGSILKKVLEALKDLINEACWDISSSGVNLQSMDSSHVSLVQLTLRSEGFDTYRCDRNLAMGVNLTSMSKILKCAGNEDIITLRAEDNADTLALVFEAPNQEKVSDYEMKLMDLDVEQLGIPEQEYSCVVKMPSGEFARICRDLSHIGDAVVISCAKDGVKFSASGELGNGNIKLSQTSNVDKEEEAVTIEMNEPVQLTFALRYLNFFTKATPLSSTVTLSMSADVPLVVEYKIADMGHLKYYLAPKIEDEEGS
Chain of UniProt P22455 (whole entry, looked up): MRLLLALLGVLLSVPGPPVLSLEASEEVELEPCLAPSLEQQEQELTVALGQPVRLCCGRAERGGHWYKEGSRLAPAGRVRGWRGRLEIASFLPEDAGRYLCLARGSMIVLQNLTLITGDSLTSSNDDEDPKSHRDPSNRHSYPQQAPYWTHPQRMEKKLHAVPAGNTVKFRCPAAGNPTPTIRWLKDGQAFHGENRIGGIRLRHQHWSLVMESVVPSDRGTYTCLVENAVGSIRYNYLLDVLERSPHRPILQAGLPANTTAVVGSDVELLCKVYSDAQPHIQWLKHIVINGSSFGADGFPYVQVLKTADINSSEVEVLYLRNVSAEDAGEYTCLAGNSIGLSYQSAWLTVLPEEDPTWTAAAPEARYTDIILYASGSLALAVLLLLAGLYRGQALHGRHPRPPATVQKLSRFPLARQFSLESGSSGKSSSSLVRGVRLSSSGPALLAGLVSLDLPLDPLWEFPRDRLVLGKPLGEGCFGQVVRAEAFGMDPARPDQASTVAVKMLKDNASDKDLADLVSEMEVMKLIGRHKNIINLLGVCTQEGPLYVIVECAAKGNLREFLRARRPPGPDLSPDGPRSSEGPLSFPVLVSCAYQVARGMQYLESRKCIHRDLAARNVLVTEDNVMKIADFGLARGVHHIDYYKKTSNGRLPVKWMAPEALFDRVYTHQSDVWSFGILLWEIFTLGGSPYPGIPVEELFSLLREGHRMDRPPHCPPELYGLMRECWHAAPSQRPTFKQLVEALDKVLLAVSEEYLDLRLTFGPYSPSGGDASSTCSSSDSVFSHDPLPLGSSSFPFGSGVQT
Chain of UniProt Q9NZC7 (whole entry, looked up): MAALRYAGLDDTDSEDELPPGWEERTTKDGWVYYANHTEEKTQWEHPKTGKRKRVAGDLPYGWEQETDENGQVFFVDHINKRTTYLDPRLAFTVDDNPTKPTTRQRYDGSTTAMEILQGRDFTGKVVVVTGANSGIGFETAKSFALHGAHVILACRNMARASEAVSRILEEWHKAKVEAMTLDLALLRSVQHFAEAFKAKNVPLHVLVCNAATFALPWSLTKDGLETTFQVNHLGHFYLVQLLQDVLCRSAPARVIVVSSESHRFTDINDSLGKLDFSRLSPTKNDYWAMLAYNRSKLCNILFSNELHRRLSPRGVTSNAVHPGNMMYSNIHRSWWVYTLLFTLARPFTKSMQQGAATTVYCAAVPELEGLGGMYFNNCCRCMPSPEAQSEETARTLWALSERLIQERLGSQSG
Chain of UniProt P30989 (whole entry, looked up): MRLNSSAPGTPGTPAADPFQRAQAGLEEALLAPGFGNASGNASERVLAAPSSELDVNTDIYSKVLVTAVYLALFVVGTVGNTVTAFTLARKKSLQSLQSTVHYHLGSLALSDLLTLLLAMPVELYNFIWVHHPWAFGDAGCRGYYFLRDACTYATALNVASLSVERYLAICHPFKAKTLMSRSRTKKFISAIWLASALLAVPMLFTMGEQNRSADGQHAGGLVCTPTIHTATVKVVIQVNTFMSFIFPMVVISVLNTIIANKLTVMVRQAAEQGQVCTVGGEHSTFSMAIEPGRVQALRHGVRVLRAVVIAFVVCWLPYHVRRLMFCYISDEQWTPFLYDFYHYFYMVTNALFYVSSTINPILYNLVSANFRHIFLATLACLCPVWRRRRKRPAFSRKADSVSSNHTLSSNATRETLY
Chain of UniProt P00691 (whole entry, looked up): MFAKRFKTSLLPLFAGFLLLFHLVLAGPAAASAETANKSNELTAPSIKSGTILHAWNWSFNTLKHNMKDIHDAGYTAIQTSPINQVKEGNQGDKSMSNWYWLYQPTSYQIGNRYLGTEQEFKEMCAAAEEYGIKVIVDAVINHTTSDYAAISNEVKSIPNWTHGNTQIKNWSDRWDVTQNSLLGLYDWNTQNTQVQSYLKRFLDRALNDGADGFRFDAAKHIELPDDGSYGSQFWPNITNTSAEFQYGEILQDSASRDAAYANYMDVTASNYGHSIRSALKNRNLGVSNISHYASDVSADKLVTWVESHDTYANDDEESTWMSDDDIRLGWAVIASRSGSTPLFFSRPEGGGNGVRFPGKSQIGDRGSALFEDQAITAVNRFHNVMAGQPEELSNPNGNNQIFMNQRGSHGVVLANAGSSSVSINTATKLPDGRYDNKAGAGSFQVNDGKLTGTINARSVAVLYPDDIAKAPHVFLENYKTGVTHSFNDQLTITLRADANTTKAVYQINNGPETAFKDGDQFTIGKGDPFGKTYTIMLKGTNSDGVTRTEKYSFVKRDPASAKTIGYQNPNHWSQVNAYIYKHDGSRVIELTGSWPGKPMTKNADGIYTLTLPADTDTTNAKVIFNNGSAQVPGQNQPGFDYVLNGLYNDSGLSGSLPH
Chain of UniProt O66465 (whole entry, unmodified, looked up): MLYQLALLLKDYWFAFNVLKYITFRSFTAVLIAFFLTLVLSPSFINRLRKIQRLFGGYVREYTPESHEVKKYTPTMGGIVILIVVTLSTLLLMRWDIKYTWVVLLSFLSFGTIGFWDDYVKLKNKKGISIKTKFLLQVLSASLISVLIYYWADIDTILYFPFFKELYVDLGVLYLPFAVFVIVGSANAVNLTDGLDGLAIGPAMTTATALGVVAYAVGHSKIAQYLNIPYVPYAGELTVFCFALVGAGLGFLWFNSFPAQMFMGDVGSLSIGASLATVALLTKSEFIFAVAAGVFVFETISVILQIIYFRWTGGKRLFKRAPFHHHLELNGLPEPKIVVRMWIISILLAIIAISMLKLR

CC(C)P(=S)(NP(=S)(C(C)C)C(C)C)C(C)C
Kd (Alpha-amylase (Bacillus subtilis, UniProt P00691); fluorescence quenching; 304 K): 1090 µM

CC(=O)NC1C(OC2C(O)C(CO)OC(O)C2OC2OC(C)C(O)C(O)C2O)OC(CO)C(O)C1O (stereo not drawn)
Kd (sly (Streptococcus suis, UniProt Q55996); binding): 0.0087 µM

CC[C@H](C)[C@H](NC(=O)[C@@H](N)CCCCN)C(=O)N1CCC[C@H]1C(=O)N[C@@H](Cc1ccc(O)cc1)C(=O)N[C@@H](Cc1ccccc1)C(=O)N[C@@H](Cc1c[nH]cn1)C(=O)N[C@@H](C)C(=O)NCC(=O)NCC(=O)N[C@@H](CO)C(=O)N[C@@H](CCCCN)C(=O)N[C@@H](CS)C(=O)N[C@@H](CO)C(=O)N[C@H](C(=O)N[C@@H](Cc1ccc(O)cc1)C(=O)N1CCC[C@H]1C(=O)N[C@@H](CC(C)C)C(=O)N1CCC[C@H]1C(=O)N[C@@H](CCC(N)=O)C(=O)N1CCC[C@H]1C(=O)N[C@@H](CO)C(=O)O)[C@@H](C)OP(=O)(O)O
Kd (YWHAZ; binding, isothermal titration calorimetry; 37 °C, first site, two-site model, with: phosphorylated PRLR peptide): 0.4 ± 0.2 µM

N=C(N)NCCC[C@H](NC(=O)[C@@H]1CCCN1C(=O)[C@H](CCCNC(=N)N)NC(=O)[C@H](Cc1c[nH]c2ccccc12)NC(=O)CNC(=O)[C@@H](N)Cc1c[nH]cn1)C(=O)N[C@@H](CO)C(=O)NCC(=O)N[C@@H](CCCCN)C(=O)N[C@@H](CC(N)=O)C(=O)N[C@@H](CCC(N)=O)C(=O)N[C@@H](CC(N)=O)C(=O)O
Kd (Small ubiquitin-related modifier 1 (Homo sapiens, UniProt P63165); binding, BLI): 0.0885 µM

CC[C@H](C)[C@H](NC(=O)[C@H](Cc1ccc(O)cc1)NC(=O)[C@@H]1CCCN1C(=O)[C@H](CCCCN)NC(=O)[C@H](CCCCN)NC(=O)CCNC(=O)CCNC(=O)[C@H](CCC(=O)NCCC(=O)NCCC(=O)N[C@@H](Cc1ccc(OCC(=O)N[C@@H](Cc2ccccc2)C(=O)NCCCC[C@H](NC(=O)N[C@@H](CCC(=O)O)C(=O)O)C(=O)O)cc1)C(=O)O)NC(=O)CCNC(=O)CCNC(=O)CN1CCN(CC(=O)O)CCN(CC(=O)O)CCN(CC(=O)O)CC1)C(=O)N[C@@H](CC(C)C)C(=O)O [gallium-68 labelled]
Kd (Neurotensin receptor type 1 (NTSR1, Homo sapiens, UniProt P30989); saturation binding; PC3-PIP cells; 2 h, 4 °C): 0.157 ± 0.071 µM

CC[C@H](C)[C@H](NC(=O)[C@H](Cc1c[nH]cn1)NC(=O)[C@H](CCCCNC(=O)[C@@H](NC(=O)[C@H](CCCCN)NC(=O)CSC[C@H](NC(=O)[C@H](Cc1ccccc1)NC(=O)[C@H](CCCCNC(=O)[C@H](CC(C)C)NC(=O)[C@@H]1CCCN1C(=O)[C@H](CCCCN)NC(=O)c1ccc(O[C@@H]2O[C@H](CO)[C@H](O)[C@H](O)[C@H]2O)cc1)NC(=O)[C@H](CC(C)C)NC(=O)[C@@H]1CCCN1C(=O)[C@H](CCCCN)NC(=O)C[C@@H]1O[C@@H](C)[C@@H](O)[C@@H](O)[C@@H]1O)C(N)=O)[C@@H](C)CC)NC(=O)[C@@H](NC(=O)[C@H](CCCCN)NC(=O)CSC[C@H](NC(=O)[C@H](Cc1ccccc1)NC(=O)[C@H](CCCCNC(=O)[C@H](CC(C)C)NC(=O)[C@@H]1CCCN1C(=O)[C@H](CCCCN)NC(=O)c1ccc(O[C@@H]2O[C@H](CO)[C@H](O)[C@H](O)[C@H]2O)cc1)NC(=O)[C@H](CC(C)C)NC(=O)[C@@H]1CCCN1C(=O)[C@H](CCCCN)NC(=O)C[C@@H]1O[C@@H](C)[C@@H](O)[C@@H](O)[C@@H]1O)C(N)=O)[C@@H](C)CC)C(N)=O
Kd (PA-I galactophilic lectin (lecA, Pseudomonas aeruginosa, UniProt Q05097); binding, ITC; pH 7.5): 0.075 µM

CC(=O)N[C@@H](CCCNC(=N)N)C(=O)N[C@H](C(=O)N1CCC[C@H]1C(=O)N[C@@H](COP(=O)(O)O)C(=O)N[C@@H](CC(C)C)C(=O)N1CCC[C@H]1C(=O)N[C@H](C(=O)N1CCC[C@H]1C(c1ccccc1)c1ccccc1)[C@@H](C)O)[C@@H](C)O
Kd (YWHAZ; binding, ITC): 5.4 µM

O=C(/C=C/c1ccccc1F)c1ccc(OS(=O)(=O)c2cccs2)cc1
Kd (CP, capsid (Tobacco mosaic virus, UniProt P69687); binding, MST): 0.27 µM

CC(C)C[C@H](NC(=O)[C@@H](NC(=O)[C@@H](NC(=O)CN)[C@@H](C)O)C(C)C)C(=O)N1CCC[C@H]1C(=O)N[C@@H](C)C(=O)N[C@@H](C)C(=O)N1CCC[C@H]1C(=O)N[C@@H](Cc1ccc(O)cc1)C(=O)N[C@@H](CCCNC(=N)N)C(=O)N[C@@H](Cc1c[nH]cn1)C(=O)N[C@@H](CCCNC(=N)N)C(=O)N[C@@H](CC(N)=O)C(=O)NCC(=O)NCC(=O)NCC(=O)NCC(=O)NCC(=O)N[C@H](C(=O)N[C@H](C(=O)N[C@@H](CC(C)C)C(=O)N1CCC[C@H]1C(=O)N1CCC[C@H]1C(=O)N1CCC[C@H]1C(=O)N1CCC[C@H]1C(=O)N[C@@H](Cc1ccc(O)cc1)C(=O)N[C@@H](CCCNC(=N)N)C(=O)N[C@@H](Cc1c[nH]cn1)C(=O)N[C@@H](CCCNC(=N)N)C(=O)N[C@@H](CC(N)=O)C(=O)O)C(C)C)[C@@H](C)O
Kd (WW domain-containing oxidoreductase, WW1-WW2 tandem domains (WWOX, Homo sapiens, UniProt Q9NZC7); NMR titration): 10 to 20 µM

C#CC[C@H](NC(=O)CNC(=O)[C@H](CO)NC(=O)[C@H](CCCCN)NC(=O)[C@H](C)N(C)C(=O)[C@H](C)NC(=O)[C@@H](NC(=O)[C@@H](NC(=O)[C@H](CCCNC(=N)N)NC(=O)[C@H](Cc1c[nH]cn1)NC(=O)[C@@H]1CCCN1C(=O)[C@H](Cc1ccccc1)NC(=O)[C@@H](N)CCSC)C(C)C)[C@@H](C)O)C(=O)O
Kd (Microtubule-associated protein 1 light chain 3 beta (Homo sapiens, UniProt Q9GZQ8); fluorescence polarization): 0.312 ± 0.143 µM

CN(C)CCCSC(=S)N1CCN(C(=O)/C=C/c2coc3ccccc3c2=O)CC1
Kd (Nucleoprotein (N, Tomato spotted wilt virus, UniProt P25999, R94A/Y184A); binding, biolayer interferometry; mutant nucleocapsid protein): > 400 µM

CC(C)C[C@H](NC(=O)[C@H](CCCNC(=N)N)NC(=O)[C@H](CCC(=O)O)NC(=O)[C@H](CCCCN)NC(=O)[C@H](CCCNC(=N)N)NC(=O)[C@H](CCCCN)NC(=O)[C@]1(C)CCCC=CCCC[C@](C)(NC(=O)[C@H](CC(C)C)NC(=O)[C@H](CO)NC(=O)[C@]2(C)CCCC=CCCC[C@](C)(NC(=O)[C@@H]3CCCN3C(=O)[C@@H](NC(=O)[C@H](CO)NC(=O)c3ccc4c(c3)C(=O)OC43c4ccc(N(C)C)cc4Oc4cc(N(C)C)ccc43)C(C)C)C(=O)N[C@@H](C)C(=O)N[C@@H](CCCNC(=N)N)C(=O)N[C@@H](CCCCN)C(=O)N2)C(=O)N[C@@H](CCCNC(=N)N)C(=O)N[C@@H](Cc2ccccc2)C(=O)N[C@@H](CC(C)C)C(=O)N1)C(=O)O
Kd (Transcription factor MYC2 (MYC2, Arabidopsis thaliana, UniProt Q39204); binding, fluorescence anisotropy; pH 8.0, MYC2 residues 55-259): 0.16 ± 0.06 µM

CSCC[C@H](NC(C)=O)C(=O)N[C@@H](CCC(N)=O)C(=O)N[C@H](C(=O)N[C@H]1CSCc2cccc(c2)CSC[C@@H](C(=O)NCC(=O)N[C@@H](Cc2ccc(O)cc2)C(=O)NCC(=O)N[C@@H](CO)C(=O)NCC(=O)N[C@@H](CO)C(=O)NCC(=O)N[C@@H](CO)C(=O)N[C@@H](CC(=O)O)C(=O)N[C@@H](Cc2ccc(O)cc2)C(=O)N[C@@H](CCCCN)C(=O)N[C@@H](CC(=O)O)C(=O)N[C@@H](CC(=O)O)C(=O)N[C@@H](CC(=O)O)C(=O)N[C@@H](CC(=O)O)C(=O)N[C@@H](CCCCN)C(N)=O)NC(=O)[C@H](CC(C)C)NC(=O)[C@H](C(C)C)NC(=O)[C@H](CC(C)C)NC(=O)[C@H](Cc2c[nH]cn2)NC(=O)[C@H](CCC(=O)O)NC(=O)[C@H](CCCCN)NC(=O)[C@H](Cc2ccccc2)NC(=O)[C@H]([C@@H](C)O)NC1=O)[C@@H](C)O
Kd (Fibroblast growth factor receptor 4 (FGFR4, Homo sapiens, UniProt P22455); binding, BLI): > 10 µM

CC[C@H](C)[C@H](NC(=O)[C@@H](NC(=O)[C@H](Cc1c[nH]c2ccccc12)NC(=O)[C@H](CCC(=O)O)NC(=O)[C@H](CO)NC(=S)Nc1ccc2c(c1)C(=O)OC21c2ccc(O)cc2Oc2cc(O)ccc21)C(C)C)C(=O)N[C@H](C(=O)N[C@H](C(=O)N1CCC[C@H]1C(=O)N[C@@H](Cc1ccccc1)C(=O)N[C@@H](C)C(=O)N[C@H](C(=O)N[C@@H](CC(N)=O)C(=O)N[C@@H](CC(C)C)C(=O)O)[C@@H](C)O)[C@@H](C)CC)C(C)C
Kd (Rgg transcriptional regulator (Streptococcus pneumoniae, UniProt A0A0E7KI02); binder, fluorescence polarization; 20 min, pH 7.4, 20 °C, fluorescein-labelled peptide): 4.3 ± 0.2 µM

CC(C)CC(NC(=O)C(NC(=O)NC(C(=O)O)C(C)C)C1CCNC(=N)N1)C(=O)NCCCNC(C(=O)O)C(OC1OC(CN)C(O)C1O)C1OC(n2ccc(=O)[nH]c2=O)C(O)C1O (stereo not drawn)
Kd (Phospho-N-acetylmuramoyl-pentapeptide-transferase (mraY, Aquifex aeolicus, UniProt O66465, K70A); binding, ITC): 0.0639 µM

C=CCOC(=O)NCCC[C@@H](NC(=O)[C@H](CCCNC(=N)N)NC(=O)[C@H](C)NC(=O)[C@H](CCCNC(=N)N)NC(=O)CNC(=O)[C@H](CCCNC(=N)N)NC(=O)[C@@H](NC(=O)[C@@H](NC(=O)CNC(=O)[C@H](CC(C)C)NC(=O)[C@@H]1CCCN1C(=O)[C@H](CC(=O)O)NC(=O)[C@H](CO)NC(=O)[C@H](C)NC(=O)c1cc(-c2ccccc2)nc2ccccc12)C(C)C)C(C)C)C(N)=O
Kd (Klotho (Homo sapiens, UniProt Q9UEF7); binding, BLI competition): 0.0012 ± 0.0004 µM

CSCC[C@@H]1NC(=O)[C@H](CO)NC(=O)[C@@H](NC(=O)[C@H](CCC(N)=O)NC(=O)[C@H](CCCNC(=N)N)NC(C)=O)CSCCCSC[C@@H](C(=O)N[C@@H](Cc2ccccc2)C(=O)N[C@@H](Cc2ccc(O)cc2)C(=O)N[C@@H](Cc2c[nH]cn2)C(=O)N[C@@H](CO)C(=O)N[C@@H](CCCCN)C(N)=O)NC(=O)[C@H]([C@@H](C)O)NC1=O
Kd (Proliferating cell nuclear antigen (PCNA, Homo sapiens, UniProt P12004); binding, SPR): 0.769 µM

CSCC[C@H](NC(=O)[C@H](CO)NC(=O)[C@H](CC(C)C)NC(=O)[C@H](CC(=O)O)NC(=O)[C@H](CC(C)C)NC(=O)[C@H](Cc1ccc(OP(=O)(O)O)cc1)NC(=O)[C@H](CCC(=O)O)NC(=O)[C@H](CCC(N)=O)NC(=O)[C@H](CC(N)=O)NC(=O)[C@H](CO)NC(=O)[C@@H](N)[C@@H](C)O)C(N)=O
Kd (1-phosphatidylinositol 4,5-bisphosphate phosphodiesterase gamma-1, C-terminal SH2 domain (Rattus norvegicus, UniProt P10686); C-SH2 domain binding, isothermal titration calorimetry; 25 °C): 1.81 ± 0.688 µM

Excerpt of the above:
CC(C)C[C@H](NC(=O)[C@@H](NC(=O)[C@@H](NC(=O)CN)[C@@H](C)O)C(C)C)C(=O)N1CCC[C@H]1C(=O)N[C@@H](C)C(=O)N[C@@H](C)C(=O)N1CCC[C@H]1C(=O)N[C@@H](Cc1ccc(O)cc1)C(=O)N[C@@H](CCCNC(=N)N)C(=O)N[C@@H](Cc1c[nH]cn1)C(=O)N[C@@H](CCCNC(=N)N)C(=O)N[C@@H](CC(N)=O)C(=O)NCC(=O)NCC(=O)NCC(=O)NCC(=O)NCC(=O)N[C@H](C(=O)N[C@H](C(=O)N[C@@H](CC(C)C)C(=O)N1CCC[C@H]1C(=O)N1CCC[C@H]1C(=O)N1CCC[C@H]1C(=O)N1CCC[C@H]1C(=O)N[C@@H](Cc1ccc(O)cc1)C(=O)N[C@@H](CCCNC(=N)N)C(=O)N[C@@H](Cc1c[nH]cn1)C(=O)N[C@@H](CCCNC(=N)N)C(=O)N[C@@H](CC(N)=O)C(=O)O)C(C)C)[C@@H](C)O
Kd (WW domain-containing oxidoreductase, WW1-WW2 tandem domains (WWOX, Homo sapiens, UniProt Q9NZC7); NMR titration): 10 to 20 µM

N=C(N)NCCC[C@H](NC(=O)[C@@H]1CCCN1C(=O)[C@H](CCCNC(=N)N)NC(=O)[C@H](Cc1c[nH]c2ccccc12)NC(=O)CNC(=O)[C@@H](N)Cc1c[nH]cn1)C(=O)N[C@@H](CO)C(=O)NCC(=O)N[C@@H](CCCCN)C(=O)N[C@@H](CC(N)=O)C(=O)N[C@@H](CCC(N)=O)C(=O)N[C@@H](CC(N)=O)C(=O)O
Kd (Small ubiquitin-related modifier 1 (Homo sapiens, UniProt P63165); binding, BLI): 0.0885 µM
